# Measured values pooled from the literature.
# Numbered parts are unrelated; each lists some results of a single study.
# UniProt Q8WXR4, sequence (whole entry, looked up): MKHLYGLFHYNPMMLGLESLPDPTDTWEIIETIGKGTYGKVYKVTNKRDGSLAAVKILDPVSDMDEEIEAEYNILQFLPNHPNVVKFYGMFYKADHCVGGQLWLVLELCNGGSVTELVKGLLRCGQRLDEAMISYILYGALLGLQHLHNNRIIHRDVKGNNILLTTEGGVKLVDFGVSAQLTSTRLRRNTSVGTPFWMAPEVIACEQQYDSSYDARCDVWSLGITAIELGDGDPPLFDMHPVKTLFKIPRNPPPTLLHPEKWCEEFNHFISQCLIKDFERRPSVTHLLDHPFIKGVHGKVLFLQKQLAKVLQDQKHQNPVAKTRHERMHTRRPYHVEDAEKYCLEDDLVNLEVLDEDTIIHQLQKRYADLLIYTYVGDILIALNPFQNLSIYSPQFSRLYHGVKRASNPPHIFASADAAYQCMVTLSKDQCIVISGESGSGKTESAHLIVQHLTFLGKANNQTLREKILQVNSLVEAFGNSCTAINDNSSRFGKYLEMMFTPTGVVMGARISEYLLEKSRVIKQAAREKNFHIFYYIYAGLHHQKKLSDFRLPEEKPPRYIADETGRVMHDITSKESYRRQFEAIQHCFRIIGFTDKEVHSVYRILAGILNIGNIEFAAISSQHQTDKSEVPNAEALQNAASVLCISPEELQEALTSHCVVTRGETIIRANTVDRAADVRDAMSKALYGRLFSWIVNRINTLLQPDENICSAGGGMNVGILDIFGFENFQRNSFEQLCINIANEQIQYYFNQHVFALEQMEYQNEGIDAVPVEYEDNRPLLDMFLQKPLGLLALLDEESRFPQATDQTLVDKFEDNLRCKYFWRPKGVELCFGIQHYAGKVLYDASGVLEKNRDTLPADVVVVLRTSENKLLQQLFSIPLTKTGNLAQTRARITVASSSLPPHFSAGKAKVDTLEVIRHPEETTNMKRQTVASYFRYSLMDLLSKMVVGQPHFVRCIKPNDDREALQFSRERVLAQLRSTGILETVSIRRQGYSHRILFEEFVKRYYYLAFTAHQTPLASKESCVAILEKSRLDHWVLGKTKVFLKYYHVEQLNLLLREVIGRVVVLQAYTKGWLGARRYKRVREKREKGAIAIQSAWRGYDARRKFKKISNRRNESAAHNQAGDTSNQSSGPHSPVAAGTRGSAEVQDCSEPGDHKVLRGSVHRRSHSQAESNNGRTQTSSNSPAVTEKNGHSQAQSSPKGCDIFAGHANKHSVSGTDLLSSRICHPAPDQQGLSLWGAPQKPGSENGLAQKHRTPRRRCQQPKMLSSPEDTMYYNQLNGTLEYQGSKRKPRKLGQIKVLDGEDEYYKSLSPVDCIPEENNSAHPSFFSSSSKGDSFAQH
# UniProt P07333, sequence (whole entry, looked up): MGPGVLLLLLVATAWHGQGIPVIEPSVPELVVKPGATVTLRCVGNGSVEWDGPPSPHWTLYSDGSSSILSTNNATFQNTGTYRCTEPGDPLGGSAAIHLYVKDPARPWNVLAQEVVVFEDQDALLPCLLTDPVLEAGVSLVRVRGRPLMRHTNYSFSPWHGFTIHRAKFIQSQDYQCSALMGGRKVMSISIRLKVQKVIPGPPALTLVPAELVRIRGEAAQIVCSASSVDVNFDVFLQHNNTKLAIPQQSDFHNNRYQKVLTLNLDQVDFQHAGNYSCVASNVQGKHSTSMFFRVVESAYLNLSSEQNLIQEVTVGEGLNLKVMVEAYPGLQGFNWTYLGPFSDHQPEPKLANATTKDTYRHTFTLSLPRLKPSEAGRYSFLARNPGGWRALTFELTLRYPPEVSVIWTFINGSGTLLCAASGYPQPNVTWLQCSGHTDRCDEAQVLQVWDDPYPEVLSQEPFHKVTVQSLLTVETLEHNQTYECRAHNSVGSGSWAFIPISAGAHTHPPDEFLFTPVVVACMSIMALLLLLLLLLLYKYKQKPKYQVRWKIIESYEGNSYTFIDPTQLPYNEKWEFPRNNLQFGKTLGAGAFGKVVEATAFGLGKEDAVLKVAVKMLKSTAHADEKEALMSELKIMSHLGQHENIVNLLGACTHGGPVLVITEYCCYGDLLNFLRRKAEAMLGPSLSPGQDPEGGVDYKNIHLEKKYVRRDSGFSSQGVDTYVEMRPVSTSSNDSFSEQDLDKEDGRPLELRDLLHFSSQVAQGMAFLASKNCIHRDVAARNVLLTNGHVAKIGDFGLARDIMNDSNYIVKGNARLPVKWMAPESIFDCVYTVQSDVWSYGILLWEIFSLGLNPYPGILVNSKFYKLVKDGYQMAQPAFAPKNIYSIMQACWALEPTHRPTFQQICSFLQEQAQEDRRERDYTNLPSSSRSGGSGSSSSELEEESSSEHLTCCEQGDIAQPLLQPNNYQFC
# UniProt P19525, sequence (whole entry, looked up): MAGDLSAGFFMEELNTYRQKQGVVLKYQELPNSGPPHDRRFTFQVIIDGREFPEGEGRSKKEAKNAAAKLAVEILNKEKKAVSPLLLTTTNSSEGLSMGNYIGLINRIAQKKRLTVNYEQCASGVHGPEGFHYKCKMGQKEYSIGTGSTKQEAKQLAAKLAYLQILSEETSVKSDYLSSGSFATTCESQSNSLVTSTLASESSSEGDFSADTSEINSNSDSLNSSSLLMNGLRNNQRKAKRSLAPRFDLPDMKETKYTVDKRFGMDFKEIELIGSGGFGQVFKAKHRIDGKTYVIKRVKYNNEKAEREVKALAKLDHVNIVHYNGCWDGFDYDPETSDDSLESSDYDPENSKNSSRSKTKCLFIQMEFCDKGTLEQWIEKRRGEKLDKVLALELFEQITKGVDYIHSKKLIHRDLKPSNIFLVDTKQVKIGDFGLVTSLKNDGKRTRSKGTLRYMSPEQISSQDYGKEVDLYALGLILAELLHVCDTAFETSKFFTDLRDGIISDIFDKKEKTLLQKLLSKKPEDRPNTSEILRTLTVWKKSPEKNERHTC

# Study 1
# Target: Sal-like protein 4, full length isoform A (SALL4, Homo sapiens, UniProt Q9UJQ4, residues 1-1053)
# UniProt Q9UJQ4, sequence (whole entry, looked up): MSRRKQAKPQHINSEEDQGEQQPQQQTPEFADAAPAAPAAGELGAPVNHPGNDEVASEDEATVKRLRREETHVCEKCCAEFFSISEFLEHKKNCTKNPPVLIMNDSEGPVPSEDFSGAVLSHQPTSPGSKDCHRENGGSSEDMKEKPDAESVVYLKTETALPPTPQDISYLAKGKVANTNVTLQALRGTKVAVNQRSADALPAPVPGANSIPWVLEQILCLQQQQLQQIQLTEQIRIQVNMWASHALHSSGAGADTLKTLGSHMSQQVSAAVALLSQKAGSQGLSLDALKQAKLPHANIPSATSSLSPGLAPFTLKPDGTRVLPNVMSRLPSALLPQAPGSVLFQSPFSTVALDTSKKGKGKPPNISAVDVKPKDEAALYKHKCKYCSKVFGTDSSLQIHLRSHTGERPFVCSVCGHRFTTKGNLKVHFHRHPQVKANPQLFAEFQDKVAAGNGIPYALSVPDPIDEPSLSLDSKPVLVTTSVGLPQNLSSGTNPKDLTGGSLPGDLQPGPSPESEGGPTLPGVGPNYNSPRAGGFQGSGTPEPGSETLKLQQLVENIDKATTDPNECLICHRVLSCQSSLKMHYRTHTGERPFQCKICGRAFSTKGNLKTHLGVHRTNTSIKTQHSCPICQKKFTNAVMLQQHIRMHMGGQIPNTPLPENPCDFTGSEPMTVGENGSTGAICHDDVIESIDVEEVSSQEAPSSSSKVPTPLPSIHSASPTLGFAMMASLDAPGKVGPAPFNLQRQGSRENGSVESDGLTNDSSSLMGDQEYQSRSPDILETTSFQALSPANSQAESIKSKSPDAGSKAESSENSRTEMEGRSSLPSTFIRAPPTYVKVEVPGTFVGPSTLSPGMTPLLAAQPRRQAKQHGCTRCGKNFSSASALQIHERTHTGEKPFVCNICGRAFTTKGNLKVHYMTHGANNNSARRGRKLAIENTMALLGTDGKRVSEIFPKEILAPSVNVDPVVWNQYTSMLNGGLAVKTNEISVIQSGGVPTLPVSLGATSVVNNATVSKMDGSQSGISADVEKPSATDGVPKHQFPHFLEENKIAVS
# Technique: universal PBM
# Molecule type: double-stranded DNA, one strand shown
# Medium: in vitro
# Tested at: 600 nM
# Notes: 8-mer, flanks averaged, mean of replicates
# Direction: higher = stronger binding
Sequence,E-score
CTCCAAGC,-0.191
ATCACTTC,0.0442
TAACGCCA,0.036
GCTAAGCC,-0.245
ACCGCAAG,-0.0862
CTAATTTA,0.309
TCTTGCCA,-0.0517
ATCGTTCA,0.179

# Study 2
# Compound: CNC(=O)Nc1ccc2c(c1)CC[C@@]21OC(=O)N(CC(=O)N(Cc2ccc(F)cc2)[C@@H](C)C(F)(F)F)C1=O
# Technique: competition with immobilised ligand
# Tested at: 1 µM
target,assay,remaining binding [%]
"FLT3 (Homo sapiens, UniProt P36888, D835V)",cell-free assay,76
"Macrophage colony-stimulating factor 1 receptor, autoinhibited (CSF1R, Homo sapiens, UniProt P07333)",cell-free assay,90
"NEK7 (Homo sapiens, UniProt Q8TDX7)",cell-free assay,91
"CDK14 (Homo sapiens, UniProt O94921)",cell-free assay,79
"FER (Homo sapiens, UniProt P16591)",cell-free assay,87
"Myosin-IIIb (MYO3B, Homo sapiens, UniProt Q8WXR4)",binding,88
"PIP4K2B (Homo sapiens, UniProt P78356)",cell-free assay,69
"MKNK1 (Homo sapiens, UniProt Q9BUB5)",cell-free assay,67
"CDK2 (Homo sapiens, UniProt P24941)",cell-free assay,100
"ABL2 (Homo sapiens, UniProt P42684)",cell-free assay,88
"EIF2AK2 (Homo sapiens, UniProt P19525)",cell-free assay,92
"EGFR (Homo sapiens, UniProt P00533, L858R/T790M)",cell-free assay,91
"PAK1 (Homo sapiens, UniProt Q13153)",cell-free assay,88
"GAK (Homo sapiens, UniProt O14976)",cell-free assay,100

# Study 3
# Target: Transcriptional repressor CTCF (CTCF, Homo sapiens, UniProt P49711, residues 1-727, full length assumed)
# Technique: protein-binding microarray
# Molecule type: double-stranded DNA, one strand shown
# Medium: in vitro
# Tested at: not given
# Notes: k-mer, scored over probes, only values ≥0.25
# Direction: higher = stronger binding
# Target sequence (chain): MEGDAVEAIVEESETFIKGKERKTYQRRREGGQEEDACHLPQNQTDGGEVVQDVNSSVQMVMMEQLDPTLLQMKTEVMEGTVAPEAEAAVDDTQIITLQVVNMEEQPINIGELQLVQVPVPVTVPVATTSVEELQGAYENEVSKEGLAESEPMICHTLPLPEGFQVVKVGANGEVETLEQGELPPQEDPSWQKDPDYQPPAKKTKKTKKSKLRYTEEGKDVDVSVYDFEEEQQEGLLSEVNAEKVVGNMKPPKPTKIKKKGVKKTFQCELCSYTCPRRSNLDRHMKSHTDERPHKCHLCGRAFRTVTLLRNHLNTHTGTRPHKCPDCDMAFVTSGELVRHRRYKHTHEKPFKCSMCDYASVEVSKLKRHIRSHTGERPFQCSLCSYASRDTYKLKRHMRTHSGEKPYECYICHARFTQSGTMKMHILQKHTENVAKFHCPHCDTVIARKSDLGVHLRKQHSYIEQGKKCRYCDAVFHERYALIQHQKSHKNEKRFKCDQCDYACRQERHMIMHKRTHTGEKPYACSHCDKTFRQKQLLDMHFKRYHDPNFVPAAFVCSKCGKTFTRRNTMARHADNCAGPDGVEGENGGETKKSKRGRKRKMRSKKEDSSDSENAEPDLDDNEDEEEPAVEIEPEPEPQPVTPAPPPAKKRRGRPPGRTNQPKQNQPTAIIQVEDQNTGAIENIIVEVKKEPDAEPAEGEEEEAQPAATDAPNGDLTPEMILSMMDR
Sequence,E-score
TATCTACA,0.27
CCGCGCGG,0.301
AAAAATGA,0.313
AAATAAAT,0.333
ATACGTTC,0.254
CCGCTAGG,0.463
ATGAAATA,0.284
AGGCGGGG,0.342

# Study 4
# Target: Serine/threonine-protein kinase ULK1 (ULK1, Homo sapiens, UniProt O75385)
# UniProt O75385, sequence (whole entry, looked up): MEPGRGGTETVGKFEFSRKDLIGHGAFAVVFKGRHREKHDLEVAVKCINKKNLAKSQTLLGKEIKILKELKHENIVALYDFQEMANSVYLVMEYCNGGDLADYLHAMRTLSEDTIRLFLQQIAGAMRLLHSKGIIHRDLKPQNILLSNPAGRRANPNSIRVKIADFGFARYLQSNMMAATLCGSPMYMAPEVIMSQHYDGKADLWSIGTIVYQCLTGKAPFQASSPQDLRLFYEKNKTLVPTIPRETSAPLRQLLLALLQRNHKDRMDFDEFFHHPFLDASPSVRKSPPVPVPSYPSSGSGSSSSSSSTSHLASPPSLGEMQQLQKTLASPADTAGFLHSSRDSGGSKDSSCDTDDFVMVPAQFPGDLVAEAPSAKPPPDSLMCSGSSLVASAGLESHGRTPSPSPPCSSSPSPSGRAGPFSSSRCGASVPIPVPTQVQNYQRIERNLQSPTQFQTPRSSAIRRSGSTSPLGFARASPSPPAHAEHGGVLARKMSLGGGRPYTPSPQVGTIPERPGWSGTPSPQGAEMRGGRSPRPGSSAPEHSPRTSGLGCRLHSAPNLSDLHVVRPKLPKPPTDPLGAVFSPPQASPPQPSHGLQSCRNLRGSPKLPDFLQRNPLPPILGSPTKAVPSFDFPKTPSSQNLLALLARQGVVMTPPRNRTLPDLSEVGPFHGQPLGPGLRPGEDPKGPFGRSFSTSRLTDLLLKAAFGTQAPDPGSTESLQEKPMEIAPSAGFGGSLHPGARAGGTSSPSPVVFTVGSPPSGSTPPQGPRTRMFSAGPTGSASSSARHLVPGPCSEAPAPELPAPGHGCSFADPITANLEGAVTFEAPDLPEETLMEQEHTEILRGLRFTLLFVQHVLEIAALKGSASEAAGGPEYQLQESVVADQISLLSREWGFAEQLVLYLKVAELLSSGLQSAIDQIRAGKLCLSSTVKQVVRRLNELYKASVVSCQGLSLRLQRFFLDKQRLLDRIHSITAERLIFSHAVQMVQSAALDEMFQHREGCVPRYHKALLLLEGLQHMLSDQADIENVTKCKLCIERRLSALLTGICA
# Observed: enzyme activity
# Mode: inhibitor
# Tested at: 0.5 µM
# Relative to: control
Compound,remaining activity [%]
O=C1NC(=O)C(c2cn(CCCO)c3ncccc23)=C1c1cnccn1,102
CCOC(=O)c1c(C)[nH]c(/C=C2\C(=O)Nc3ccccc32)c1C,80.1
OCC(O)CCON=C1C(c2c(O)[nH]c3ccccc23)=Nc2ccccc21 (stereo not drawn),98.3
COc1ccc(CNC(=O)Nc2ncc([N+](=O)[O-])s2)cc1,97.7
Cc1nc(-c2ccccc2)c(-c2ccncc2)o1,84.6
Nc1ccc2ncnc(NCCc3ccc(Oc4ccccc4)cc3)c2c1,105
Cc1ccc(Nc2nccc(N(C)c3ccc4c(C)n(C)nc4c3)n2)cc1S(N)(=O)=O,97.3
Cc1ccc(NC(=O)c2ccc(CN3CCN(C)CC3)cc2)cc1Nc1nc(-c2cccnc2)cs1,97.7
O=C1NC(=O)C(c2cn(CCCn3ccnc3)c3ccccc23)=C1Nc1ccccc1,90.1
COc1cc2ncnc(Nc3ccc(F)c(Cl)c3)c2cc1OCCCN1CCOCC1,93
Nc1ncnc2n[nH]c(Nc3ccc(F)cc3)c12,95.6
N#CC(C#N)=C(N)/C(C#N)=C/c1ccc(O)cc1,89.3
O=c1c2ccccc2[nH]c(=S)n1CCN1CCC(=C(c2ccc(F)cc2)c2ccc(F)cc2)CC1,98.1
CC(C)[C@H](CO)Nc1nc(Nc2cc(N)cc(Cl)c2)c2ncn(C(C)C)c2n1,41.5
CN(C)c1ccc(C=C2C(=O)Nc3ccccc32)cc1,91.9

# A few entries again (study 3):
Sequence,E-score
TATCTACA,0.27
CCGCGCGG,0.301
AAAAATGA,0.313
AAATAAAT,0.333
ATACGTTC,0.254
CCGCTAGG,0.463
